# Measurements collected from several papers.
# Protocols differ between the studies behind these lines.
# Organism: Klebsiella pneumoniae
Structure (SMILES),assay,test system,setting,MIC
COc1c(NC(=O)c2ccc(NC(=O)[C@H](Cc3c[nH]nn3)NC(=O)c3ccc(NC(=O)/C(C)=C/c4ccc(O)cc4)cc3)cc2)ccc(C(=O)Nc2ccc(C(=O)O)cc2)c1O,broth microdilution,ciprofloxacin-sensitive,,32 µg/mL
CCCCCCCCn1cc[n+](CCCCCCCCCCOc2cc(OCCCCCCCCCC[n+]3ccn(CCCCCCCC)c3)cc(OCCCCCCCCCC[n+]3ccn(CCCCCCCC)c3)c2)c1.[Br-].[Br-].[Br-],,ATCC 4352,,125 µM
CC1(C)[C@H](NC(=O)/C(=N\OCC(=O)N2CCC(C(=O)O)CC2)c2csc(N)n2)C(=O)N1OS(=O)(=O)O,agar dilution,"ATCC 700603, ESBL-producing",,> 64 µg/mL
CC[C@H]1OC(=O)[C@H](C)[C@@H](OC(=O)Cc2ccc(Cl)cc2)[C@H](C)[C@@H](O[C@@H]2O[C@H](C)C[C@H](N(C)C)[C@H]2O)[C@](C)(OC)C[C@@H](C)C(=O)[C@H](C)[C@@H](O)[C@]1(C)O,microbial growth,ATCC700603,,> 32 µg/mL
CC1(C)[C@H](NC(=O)/C(=N\OC2(C(=O)O)CC2)c2nsc(N)n2)C(=O)N1OS(=O)(=O)O,agar dilution,"16-14, ESBL-producing",,4 µg/mL
CCCCCC[N+](C)(C)CCCCOc1cc(OCCCC[N+](C)(C)CCCCCC)cc(OCCCC[N+](C)(C)CCCCCC)c1.[Br-].[Br-].[Br-],,ATCC 4352,,> 250 µM
CC1(C)[C@H](NC(=O)/C(=N\OCC(=O)N2CCC(C(=O)O)C2)c2nsc(N)n2)C(=O)N1OS(=O)(=O)O (stereo partly drawn),agar dilution,"16-14, ESBL-producing",,> 64 µg/mL
CC(C)C[C@@H]1NC(=O)[C@@H](CC(C)C)NC(=O)[C@H](CCN)NC(=O)[C@@H](NC(=O)[C@H](CCN)NC(=O)[C@@H](NC(=O)CCCCN=[N+]=[N-])[C@@H](C)O)CCNC(=O)[C@H]([C@@H](C)O)NC(=O)[C@H](CCN)NC(=O)[C@H](CCN)NC1=O,broth microdilution,"ATCC 27736, cation-adjusted Mueller-Hinton broth","18 to 20 h, 37 °C, 0.002% polysorbate 80",8 µg/mL
CC(C)(O/N=C(\C(=O)N[C@@H]1C(=O)N(OS(=O)(=O)O)C1(C)C)c1nsc(N)n1)C(=O)O,agar dilution,"16-14, ESBL-producing",,> 64 µg/mL
CCCCCCCCCCCCCCCCCCn1cc(CN(CCC(=O)NCCN(CCC(=O)NCCN(CCC(=O)NCCN(C)C)CCC(=O)NCCN(C)C)CCC(=O)NCCN(CCC(=O)NCCN(C)C)CCC(=O)NCCN(C)C)CCC(=O)NCCN(CCC(=O)NCCN(CCC(=O)NCCN(C)C)CCC(=O)NCCN(C)C)CCC(=O)NCCN(CCC(=O)NCCN(C)C)CCC(=O)NCCN(C)C)nn1,"microbial growth, broth dilution",ATCC13883,18 h,48 µg/mL
CC1(C)C(NC(=O)C(=NOC2(C(=O)O)CCC2)c2csc(N)n2)C(=O)N1OS(=O)(=O)O (stereo not drawn),agar dilution,"16-14, ESBL-producing",,0.125 µg/mL
CN[C@H](CC(C)C)C(=O)N[C@H]1C(=O)N[C@@H](CC(N)=O)C(=O)N[C@H]2C(=O)N[C@H]3C(=O)N[C@H](C(=O)N[C@H](C(=O)N[C@@H](CCCNC(=N)N)C(N)=O)c4cc(O)cc(O)c4-c4cc3ccc4O)[C@H](O)c3ccc(c(Cl)c3)Oc3cc2cc(c3O[C@@H]2O[C@H](CO)[C@@H](O)[C@H](O)[C@H]2O[C@H]2C[C@](C)(NCc3ccc(OCc4cn(CC(=O)N[C@H](C(=O)N[C@@H](CCN)C(=O)N[C@H]5CCNC(=O)[C@H]([C@@H](C)O)NC(=O)[C@H](CCN)NC(=O)[C@H](CCN)NC(=O)[C@H](CC(C)C)NC(=O)[C@@H](CC(C)C)NC(=O)[C@H](CCN)NC5=O)[C@@H](C)O)nn4)c(OC)c3)[C@H](O)[C@H](C)O2)Oc2ccc(cc2Cl)[C@H]1O,broth microdilution,"ATCC 27736, cation-adjusted Mueller-Hinton broth","18 to 20 h, 37 °C, 0.002% polysorbate 80",16 µg/mL
CCCCCCCC[N+](C)(C)CCCCOc1cc(OCCCC[N+](C)(C)CCCCCCCC)cc(OCCCC[N+](C)(C)CCCCCCCC)c1.[Br-].[Br-].[Br-],,ATCC 4352,,4 µM
CC[C@H]1OC(=O)[C@H](C)[C@@H](OC(=O)Cc2c(F)cc([N+](=O)[O-])cc2F)[C@H](C)[C@@H](O[C@@H]2O[C@H](C)C[C@H](N(C)C)[C@H]2O)[C@](C)(OC)C[C@@H](C)C(=O)[C@H](C)[C@@H](O)[C@]1(C)O,microbial growth,ATCC700603,,> 32 µg/mL
CC1(C)C(NC(=O)C(=NOCC(=O)N2CC3CCCC3C2C(=O)O)c2csc(N)n2)C(=O)N1OS(=O)(=O)O (stereo not drawn),agar dilution,"ATCC 700603, ESBL-producing",,> 64 µg/mL
CC[C@H](C)[C@H](NC(=O)[C@@H](CCCNC(=N)N)NC(=O)[C@H](CCCNC(=N)N)NC(=O)[C@@H]1CCCN1C(=O)[C@@H]1CCCN1C(=O)[C@H](CCCCN)NC(=O)[C@@H]1CCCN1C(=O)[C@H](CCCNC(=N)N)NC(=O)[C@@H]1CCCN1C(=O)[C@H](CC(C)C)NC(=O)[C@H](Cc1ccc(O)cc1)NC(=O)[C@@H]1CCCN1C(=O)[C@@H]1CCCN1C(=O)[C@H](CCCCN)NC(=O)[C@H](CC(=O)O)NC(=O)[C@@H](N)C(C)C)C(=O)N[C@@H](Cc1ccc(O)cc1)C(=O)N[C@@H](CC(N)=O)C(=O)N[C@H](CCCNC(=N)N)C(N)=O,broth microdilution,DSM 681,"18 h, 37 °C, 25% MHB2",8 µg/mL
CN[C@H](CC(C)C)C(=O)N[C@H]1C(=O)N[C@@H](CC(N)=O)C(=O)N[C@H]2C(=O)N[C@H]3C(=O)N[C@H](C(=O)N[C@H](C(=O)NCc4cn(CC(=O)N[C@H](C(=O)N[C@@H](CCN)C(=O)N[C@H]5CCNC(=O)[C@H]([C@@H](C)O)NC(=O)[C@H](CCN)NC(=O)[C@H](CCN)NC(=O)[C@H](CC(C)C)NC(=O)[C@@H](CC(C)C)NC(=O)[C@H](CCN)NC5=O)[C@@H](C)O)nn4)c4cc(O)cc(O)c4-c4cc3ccc4O)[C@H](O)c3ccc(c(Cl)c3)Oc3cc2cc(c3O[C@@H]2O[C@H](CO)[C@@H](O)[C@H](O)[C@H]2O[C@H]2C[C@](C)(N)[C@H](O)[C@H](C)O2)Oc2ccc(cc2Cl)[C@H]1O,broth microdilution,"ATCC 13883, cation-adjusted Mueller-Hinton broth","18 to 20 h, 37 °C, 0.002% polysorbate 80",32 µg/mL
CC[C@H]1OC(=O)[C@H](C)[C@@H](OC(=O)Cc2ccc(C(F)(F)F)cc2)[C@H](C)[C@@H](O[C@@H]2O[C@H](C)C[C@H](N(C)C)[C@H]2O)[C@](C)(OC)C[C@@H](C)C(=O)[C@H](C)[C@@H](O)[C@]1(C)O,microbial growth,ATCC700603,,> 32 µg/mL
c1ccc(CN2CCOCCOCCN(CCCCCCCCCCCCCCN3CCOCCOCCN(CCCCCCCCCCCCCCN4CCOCCOCCN(Cc5ccccc5)CCOCCOCC4)CCOCCOCC3)CCOCCOCC2)cc1,,ATCC BAA-2146,,10 µM
CCCCCCCCn1cc[n+](CCCCCCCCOc2cc(OCCCCCCCC[n+]3ccn(CCCCCCCC)c3)cc(OCCCCCCCC[n+]3ccn(CCCCCCCC)c3)c2)c1.[Br-].[Br-].[Br-],,ATCC 4352,,4 µM
C#CCO/N=C(\C(=O)N[C@@H]1C(=O)N(S(=O)(=O)O)[C@H]1C)c1csc(N)n1,agar dilution,16-14 ESBL,,32 µg/mL
CCCCCCCC(=O)N[C@@H](CCN)C(=O)N[C@H](C(=O)N[C@@H](CCN)C(=O)N[C@H]1CCNC(=O)[C@H]([C@@H](C)O)NC(=O)[C@H](CCN)NC(=O)[C@H](CCN)NC(=O)[C@H](CC(C)C)NC(=O)[C@@H](Cc2ccccc2)NC(=O)[C@H](CCN)NC1=O)[C@@H](C)O,broth microdilution,ATCC 13883,,16 µg/mL
CCCCCCCC[N+](C)(C)CCCCCCOc1cc(OCCCCCC[N+](C)(C)CCCCCCCC)cc(OCCCCCC[N+](C)(C)CCCCCCCC)c1.[Br-].[Br-].[Br-],,ATCC 4352,,1 µM
C#CCOc1ccc(CN[C@@]2(C)C[C@H](O[C@H]3[C@H](Oc4c5cc6cc4Oc4ccc(cc4Cl)[C@@H](O)[C@@H](NC(=O)[C@@H](CC(C)C)NC)C(=O)N[C@@H](CC(N)=O)C(=O)N[C@H]6C(=O)N[C@H]4C(=O)N[C@H](C(=O)N[C@H](C(=O)N[C@@H](CCCNC(=N)N)C(N)=O)c6cc(O)cc(O)c6-c6cc4ccc6O)[C@H](O)c4ccc(c(Cl)c4)O5)O[C@H](CO)[C@@H](O)[C@@H]3O)O[C@@H](C)[C@H]2O)cc1OC,broth microdilution,"ATCC 13883, cation-adjusted Mueller-Hinton broth","18 to 20 h, 37 °C, 0.002% polysorbate 80",128 µg/mL
CCCCCCCCCC[N+](C)(C)CCCCCCCCOc1cc(OCCCCCCCC[N+](C)(C)CCCCCCCCCC)cc(OCCCCCCCC[N+](C)(C)CCCCCCCCCC)c1.[Br-].[Br-].[Br-],,ATCC 4352,,125 µM
C#CCNC(=O)C(C)(C)O/N=C(\C(=O)N[C@@H]1C(=O)N(S(=O)(=O)O)[C@H]1C)c1csc(N)n1,agar dilution,16-14 ESBL,,128 µg/mL
CCCCCCC#Cc1cncc(-c2nnc(SCc3ccc(Cl)cc3)n2C)c1,"microbial growth, broth dilution",DSM30104,,> 64 µg/mL

# Excerpt of the above:
Structure (SMILES),assay,test system,setting,MIC
CCCCCCCC[N+](C)(C)CCCCCCOc1cc(OCCCCCC[N+](C)(C)CCCCCCCC)cc(OCCCCCC[N+](C)(C)CCCCCCCC)c1.[Br-].[Br-].[Br-],,ATCC 4352,,1 µM
CC(C)C[C@@H]1NC(=O)[C@@H](CC(C)C)NC(=O)[C@H](CCN)NC(=O)[C@@H](NC(=O)[C@H](CCN)NC(=O)[C@@H](NC(=O)CCCCN=[N+]=[N-])[C@@H](C)O)CCNC(=O)[C@H]([C@@H](C)O)NC(=O)[C@H](CCN)NC(=O)[C@H](CCN)NC1=O,broth microdilution,"ATCC 27736, cation-adjusted Mueller-Hinton broth","18 to 20 h, 37 °C, 0.002% polysorbate 80",8 µg/mL
CCCCCCCCCCCCCCCCCCn1cc(CN(CCC(=O)NCCN(CCC(=O)NCCN(CCC(=O)NCCN(C)C)CCC(=O)NCCN(C)C)CCC(=O)NCCN(CCC(=O)NCCN(C)C)CCC(=O)NCCN(C)C)CCC(=O)NCCN(CCC(=O)NCCN(CCC(=O)NCCN(C)C)CCC(=O)NCCN(C)C)CCC(=O)NCCN(CCC(=O)NCCN(C)C)CCC(=O)NCCN(C)C)nn1,"microbial growth, broth dilution",ATCC13883,18 h,48 µg/mL
